Measurements of several laboratories.
Each numbered part is a random draw from the data of one study; scales do not carry over between parts.

Sample 1
Target: Sal-like protein 4, full length isoform A (SALL4, Homo sapiens, UniProt Q9UJQ4, residues 1-1053)
Sequence of UniProt Q9UJQ4 (whole entry, looked up): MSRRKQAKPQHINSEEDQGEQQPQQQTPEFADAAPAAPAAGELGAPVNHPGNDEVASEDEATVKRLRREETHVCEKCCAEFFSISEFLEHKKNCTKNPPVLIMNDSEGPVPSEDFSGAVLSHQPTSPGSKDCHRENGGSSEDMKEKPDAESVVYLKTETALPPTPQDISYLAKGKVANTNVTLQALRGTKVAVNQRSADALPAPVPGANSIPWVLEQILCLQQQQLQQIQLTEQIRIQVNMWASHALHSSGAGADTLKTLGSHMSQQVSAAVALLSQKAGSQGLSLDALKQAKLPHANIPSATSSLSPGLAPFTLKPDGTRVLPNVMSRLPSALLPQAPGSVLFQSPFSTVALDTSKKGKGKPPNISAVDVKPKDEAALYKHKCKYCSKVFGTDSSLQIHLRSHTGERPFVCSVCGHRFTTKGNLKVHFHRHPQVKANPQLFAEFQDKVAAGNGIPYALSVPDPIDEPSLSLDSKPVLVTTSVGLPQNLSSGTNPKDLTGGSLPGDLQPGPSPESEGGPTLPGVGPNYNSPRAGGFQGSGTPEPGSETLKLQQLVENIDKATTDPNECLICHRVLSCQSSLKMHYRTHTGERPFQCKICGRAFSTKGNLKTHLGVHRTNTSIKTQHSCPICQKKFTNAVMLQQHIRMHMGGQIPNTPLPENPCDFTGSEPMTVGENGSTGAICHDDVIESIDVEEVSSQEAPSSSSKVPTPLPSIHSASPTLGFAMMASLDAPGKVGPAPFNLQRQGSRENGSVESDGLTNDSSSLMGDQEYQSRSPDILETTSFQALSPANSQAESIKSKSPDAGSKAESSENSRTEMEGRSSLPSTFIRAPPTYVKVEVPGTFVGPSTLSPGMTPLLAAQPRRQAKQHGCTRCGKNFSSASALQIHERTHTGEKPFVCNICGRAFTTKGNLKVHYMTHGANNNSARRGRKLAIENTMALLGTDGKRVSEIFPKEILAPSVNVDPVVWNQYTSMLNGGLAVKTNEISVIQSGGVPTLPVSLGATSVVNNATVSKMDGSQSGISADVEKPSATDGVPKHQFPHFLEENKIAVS
Technique: universal PBM
Form: double-stranded DNA, one strand shown
Matrix: in vitro
Concentration: 600 nM
Notes: 8-mer, flanks averaged, mean of replicates
Direction: higher = stronger binding
Oligonucleotide | E-score
GAGTTCTA | -0.0175
TATCTACA | 0.234
CCTTCCAA | -0.0217
ACTACTGG | -0.0779
ATAAATCC | 0.25
GACATTAC | 0.151
CTTAAGAC | 0.0396
TGGCTGAA | 0.00287
CTGGCAAA | -0.0232
CCGCTGGA | -0.212
ATCGCATA | 0.189
ATAGTCTA | 0.181
AAGCGCCC | -0.309
AGGCTATG | -0.0856
AGGGCCCG | -0.382
CACAGTCC | -0.194
ATAAACCC | 0.162
GCAAGTTA | 0.0201
CTGTGAGC | -0.104
CGACAATA | 0.217
GGCAGAGA | -0.121
AAGAGGTA | 0.0338
GGGTCCGA | -0.362
AACGCGCT | -0.243
AAGCGGAG | -0.231

Sample 2
Target: RING finger protein unkempt homolog, zinc fingers 1-6, GST-SBP tag (UNK, Homo sapiens, UniProt Q9C0B0, residues 30-357)
Sequence of UniProt Q9C0B0 (30-357, looked up): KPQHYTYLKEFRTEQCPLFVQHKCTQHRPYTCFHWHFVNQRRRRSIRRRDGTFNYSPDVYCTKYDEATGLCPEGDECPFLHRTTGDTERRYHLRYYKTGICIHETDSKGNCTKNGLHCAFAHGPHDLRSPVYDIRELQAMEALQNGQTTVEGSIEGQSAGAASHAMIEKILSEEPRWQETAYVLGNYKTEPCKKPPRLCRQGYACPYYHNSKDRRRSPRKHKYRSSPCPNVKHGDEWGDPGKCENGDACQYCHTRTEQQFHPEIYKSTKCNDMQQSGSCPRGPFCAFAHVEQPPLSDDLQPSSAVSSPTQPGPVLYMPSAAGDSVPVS
Technique: RNA Bind-n-Seq
Form: RNA
Matrix: in vitro
Concentration: not given
Notes: RNA with constant flanks, ends assumed
Relative to: input RNA pool
Direction: higher = stronger binding
All sequences stand within: GGGAGUUCUACAGUCCGACGAUC … CAACAGAGGAUUGAGCAUCA
Oligonucleotide | bound/input enrichment [ratio]
AAUAUGGCCAAACAGAUUGGAGCAGCUACUUAUAUCGAAUGCUCAGCUUUACAGUCGGAAAACCGCGUCAGAGACAUUUUUCACGUUGCCACCUUGGCAUGUGUAAAUAAGACAAAUAAA | 0.169
AAAGAUAGGCUCUAUUGUGAAAAGGAAAAUGACCCCAAACGACGCUCUUGUCAGACUGCAUCCGUUGAAAUUUUGGAUGUAAUAGUUCGUUCUUUUGCUCCCAUUCUUCCUCACCUGGCU | 0.505
UUGUUUAAUAUUUAGAAGCACACAAAAAAGAGGAGAAUCGUUUGGAAUCAGCAGAACCGGCCGCAAAAUUAAAGGCGUAUUCAAGAGUACGACAAUGGAGGGAGCUGUGCUGCCUAAUUA | 0.701
AAAUAUCCUCAGCUAUUUCAGGUGACACUGGAUGUAGAACUACAGCCCCAUGACAAAGUAACCGACUUAACUCCACCAUGGGAACAUUACUGCACAAAAGAUGUCAAUCCCAGCAUCCUC | 0.23
GGUGGGACAGAAAAGACAUUGCAGUAUGAAGGAAGGCUUUGGUUUGCUCAAAGUGCCAGGUGCCGGGAUGAACCUCUGACGGGCUUUCUGCCCAAGAGAUGAGAUGAGAGCCUCCUCACC | 0.261
GCUUUAAGUCUUUUGGGGAGCCAUAAGCCCUUGAUUCUACAGCAUGAGAACCUGGAAACCACCGUGGACUUCAUAAAGAACACACUCCCCAACCUGGGCCUGGUGCAGAUGGAGAAGACC | 0.24
UGGAAGCUUUGCUGAAAACCUUUCAUUUCUUCUGGAAGCUUUGCAAAAAGGUGACCGGACCCGCAGUUGCCCAGUGAUCUUCAUACUGGAUGAAUUUGAUAUUUUUGCUCAUCAGAAAAA | 0.177
CGUCACAAAGAACUUUUUGCUUUGCAUCCAUCACCAGAUGAGGAAGAACCAAUAGAACGGCUCCGUGUUCCUGAUAUACCCAAAGAACAUUUUGGUCAAAGACUUCUUGUAAAAUGCUUA | 0.155
UCUCGGGAACAGCUUGCGAUUGCAGAGUUUGCAAGAUCACUUCUUGUUAUUCCCAAUACACCCGCAGUUAAUGCUGCCCAGGACUCCACAGAUCUGGUUGCAAAAUUAAGAGCUUUUCAU | 0.102
UCACAAGAUCUUUCAGCAGCACCCGCUGAACAGUAUCUUCAGGAGAAGCUGCCAGAUGAAGCCGUUUUAAAAAUAUUUUCUUAUUUGCUGGAACAAGACCUUUGUAGAGCUGCUUGCGUG | 0.283
CGUUCUGCAUUAAGCCCCAGGUUCUCUUCUGGCUUUGAAAGGGCCCGAGUGCUCCCAGUGCCGCUUCGUCACAUCGUCACGAGCCCCUGUGGUCAUGGGCGACCUCACACCUCCCUCCCU | 0.13

Sample 3
Target: Histone acetyltransferase KAT6A, winged helix 2, GST fusion (KAT6A, Homo sapiens, UniProt Q92794, residues 85-181)
Technique: protein binding microarray
Form: double-stranded DNA, one strand shown
Matrix: in vitro
Concentration: not given
Notes: 8-mer, flanks averaged, mean of 2 arrays, mostly near background
Relative to: not given
Direction: higher = stronger binding
Residues (chain): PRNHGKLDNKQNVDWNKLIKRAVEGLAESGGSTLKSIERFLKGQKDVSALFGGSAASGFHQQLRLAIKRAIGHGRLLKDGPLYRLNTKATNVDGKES
Oligonucleotide | E-score
TATTAGAA | 0.039
GCGCGTAA | 0.0395
GTACTCAC | 0.0365
ATTCGTCG | 0.158
CTCCAAAG | 0.109
TACAAGAA | 0.0185
AAACGTGC | -0.211
CAACAACG | -0.0462
ACGCTCGC | 0.0279
GTGAAGAA | 0.0175
AGGTGAAT | 0.102
AATCGATA | 0.0449
CCACAGGC | -0.054
AAAAAGAA | 0.0684
AGCACCAG | 0.074
CAGTTGCA | 0.0108
GAACGATA | -0.165
CTGTCCGA | 0.143
TAGACTAA | -0.136
TAACCAGA | -0.0824
CCAACATA | 0.152
ACAGGAAA | 0.0764
CATATCCG | -0.0226

Sample 4
Target: RNA binding protein fox-1 homolog 2, RRM domain, GST-SBP tag (RBFOX2, Homo sapiens, UniProt O43251-10, residues 100-194)
Technique: RNA Bind-n-Seq
Form: RNA
Matrix: in vitro
Concentration: 365 nM
Notes: natural RNA segment, single round, ends assumed
Relative to: no-protein control
Direction: higher = stronger binding
All sequences stand within: GGGAGUUCUACAGUCCGACGAUC … UGGAAUUCUCGGGUGCCAA
Residues (chain): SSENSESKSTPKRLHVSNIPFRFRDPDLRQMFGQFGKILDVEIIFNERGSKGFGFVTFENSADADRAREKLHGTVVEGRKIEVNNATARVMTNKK
Oligonucleotide | RBNS enrichment (R)
GUUAUUUGAGAUUAAUUUGGCAUUUGAAAUGAUCAUUUUAUUUUACAAUCAUUUAUAAUGAAUCAAUGUUCCAGUUAGCUUUAAAAGGUAUACGGUGCUAAUUAGUAAAA | 0.667
CCUAACUCAACUGCUUUGCAAGGGGAAAUCAAGCUGGGAGAAUCUUUUUCUGGCCACCUGUGGGGUAGGUUGUCAAACCAAACAGAGCCACCGUGGGACAUCAAGUGGAA | 0.288
UCUGAUUAAUUGCUCUAUUAAAAUAAGGGGCAUUUAAAGACCCAGCAUAACCAUUUGUAUAAUGAGAAAUCUAGGGGAAAACCAAUCAGUCCAACAUGAGAUUUUAGGAA | 0.408
UCCCACCCAGGGACCCCACCCUGGCCCAGUCCUCAGGUGGAUGACUGACGCACGGCAGGAGAUUUUUGUUUUUGUUUUCCUGUAUAUGAAAUGUUUUUCAAACCAUCCUC | 1.14
UCUUCAUUUGGAGGAAUCACCCCAUUUCAGAGUUAUCAAGAGACACUCCCCCCUCCAUUCCCACCCCUCAUACCUACACCCAAGGUUGUCAGCUUUGGAUUGCUGGGGCC | 0.369
CGUUUUGUUUUGUUUUGUUUUUAAACACCUGCUUACCCCUUAAAUGCAAUUUAUUUACUUUUACCACUGUCACAGAAACAUCCACAAGAUACCAGCUAGGUCAGGGGGUG | 0.585
UAAUGUGAUUUCAGAUGGUCAUCUGGAUUCUCCCACUUCUCUACUCCAUUAUUUCUCUACUUUUCCUUCCAGCAAACCUGAAACGUGAGGGAGAUGGAUUAAUGUGAGUA | 0.226
AACCAAAUAGGCUUUAGAAGAGAUUAUCCUAUAUUCCUAUCAGUAUAAUACUAAAAUGUAACUUUUUAAUCAUCUGGUUUUUAAAAGAUAAACAGUUUAGCCCAUCUCUC | 0.302
UCAUUCCUGUCCCUUCCUGGCUUGAGCUCUUGGCUGUAUUCUGUGUGCCUCUACCAUGUCUGCUGUUUGGGUCUCUGCGCUGUGUGUUCUCAGGUGCAGCCAUGACUCCC | 1.08
UUGAAAUAUUUAUAUUCCCAUCGGUGUGUUUAGUCCUAGAAAAUUGCUAGCAGCAGUCUUCUUCACAGUGCCUUGGGAAAAGACAUUUCAAGAGGAAACUUGAUAAUUUU | 0.341
UCUUCACCACUGGACUGCGGGAGGCGGCUGCACCAGGCCCUCAGUGGAGCGCUGCUGUGACCACUGCCCUGGGCAGAAGGCCUGGAUGUCUCACUACUGAGCACCGAUGU | 0.393
UUGAUUUUCCUCUGGGCCCAAAUAUAGCCCUCACACUCUUGGAAUUUCCAGGUAUGGGGGUAGCCCCAAAAGGAGGAAUCUCCUAUGGCCAAUAAGGUAUCUUGACUUUA | 0.418

Sample 5
Target: Interferon regulatory factor 5, full length, phosphomimetic (IRF5, Homo sapiens, UniProt Q13568-2, residues 1-514, S451D/S453D/S456D/S462D)
Technique: protein-binding microarray
Form: double-stranded DNA, one strand shown
Matrix: in vitro
Concentration: 940 nM top
Notes: 60-bp whole probe
Added: salmon DNA 0.4 mg/ml
Relative to: random background probes
Direction: higher = stronger binding
All sequences stand within: GCCTAGCAC … GTCTTGATTCGCTTGACGCTGCTG
Oligonucleotide | fitted relative affinity
TGAGGTTTCGGTTTCGGTTAGTGCTAG | 14.6 z-score
TCATTTCCATTTTCTAAAACTGTGCTA | 1.81 z-score
TTAGGTTTCCTTTACCTTTAGTGCTAG | 2.04 z-score
TTAGGTTTCGGTTCCGGTTAGTGCTAG | 15.2 z-score
GAAGATTTCAATTAAAAAAAGTGCTAG | 0.217 z-score
GCCGAACTGAGTCTCGAGACGTGCTAG | 1.1 z-score
GACGGTATCCCTTTCCTGACGTGCTAG | 0.921 z-score
GACGGTATCAGTATCGAGACGTGCTAG | 4.12 z-score
TCATTTTTTTTTGTATTACTGTGCTAG | 1.66 z-score
TTGGGTTTCGACTTTCGGTTAGTGCTA | 8.27 z-score
TCAAGAAAAAGAAAAAAAACTGTGCTA | -0.0825 z-score
GACGGTTTCGACACTAGGGACGTGCTA | 6.67 z-score
GATGGTTTCGACTTTCGGGACGTGCTA | 8.62 z-score
GACGTTATCGGGACTGGGGACGTGCTA | 0.0375 z-score
TTAGATATCAGACTGGATCAGTGCTAG | -0.289 z-score
TCAAATTTATAAATAAAACTGTGCTAG | 0.0284 z-score
TCAACCCTCCCTCTGTAACTGTGCTAG | 0.464 z-score
TTAGATCTCAGTCGCGATTAGTGCTAG | 0.548 z-score
TTAAGTTTCCTTATCCTTTAGTGCTAG | 2.31 z-score
TCATCTAACCTCTCTAATACTGTGCTA | 1.01 z-score
TCAATTTTCTGAATGTCACTGTGCTAG | 0.468 z-score
GACGGGCTCCTTATCCTGACGTGCTAG | 0.0353 z-score

A few entries again (sample 3):
Oligonucleotide | E-score
CTCCAAAG | 0.109
TACAAGAA | 0.0185
GCGCGTAA | 0.0395
CATATCCG | -0.0226
GTACTCAC | 0.0365
GTGAAGAA | 0.0175
AAAAAGAA | 0.0684
CAGTTGCA | 0.0108
AGCACCAG | 0.074
ACGCTCGC | 0.0279
CCAACATA | 0.152
ATTCGTCG | 0.158
AATCGATA | 0.0449
